Results pooled from the literature.
A part holds a random share of what one study measured. Substitutions count along the parent as printed.

Sample 1 — technique: RNA Bind-n-Seq; form: RNA; medium: in vitro; tested at: 200 nM; notes: whole 134-nt RNA, ends assumed; with: 150 mM KCl; reference: input library; reading: higher = stronger binding
Target: Ras GTPase-activating protein-binding protein 1, full length (G3BP1, Homo sapiens, UniProt Q13283)
Sequence of UniProt Q13283 (whole entry, looked up): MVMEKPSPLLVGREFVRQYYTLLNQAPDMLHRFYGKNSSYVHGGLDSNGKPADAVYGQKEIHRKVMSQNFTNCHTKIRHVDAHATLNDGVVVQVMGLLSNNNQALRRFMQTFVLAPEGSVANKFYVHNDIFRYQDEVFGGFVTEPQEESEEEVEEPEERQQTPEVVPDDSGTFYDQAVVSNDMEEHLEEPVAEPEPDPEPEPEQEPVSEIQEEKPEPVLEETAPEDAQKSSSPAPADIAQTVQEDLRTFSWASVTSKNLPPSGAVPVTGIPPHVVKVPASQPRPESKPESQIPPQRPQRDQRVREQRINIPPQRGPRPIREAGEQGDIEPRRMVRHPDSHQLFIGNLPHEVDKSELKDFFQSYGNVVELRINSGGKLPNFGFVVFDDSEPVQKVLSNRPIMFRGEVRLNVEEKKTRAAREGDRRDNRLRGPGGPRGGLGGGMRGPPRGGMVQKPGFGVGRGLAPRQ
Constant ends, left off below: GGGAGUUCUACAGUCCGACGAUC … UGGAAUUCUCGGGUGUCAAGG
Sequence	log2 enrichment
UAACUUUAGAGGAGGAUCUGAUGGAUAUGGCAGUGGACUUGGAUUUGGGGAUGGCUAUAAUGGGUAUGGAGGAGGACCUGGAGGUGGCAA	0.263
GCAGGAAGUAAAAACAAAUGGAAAUGCUUCGGAUAGUGGCAGGGGUGGGGGUUGCUAAGGAAAGGGUGGGAUGGGAGUGGGUUAAGAGUU	1.25
AGGCCCUGGUGGCAUGCGGGGAGGAAGAGGUGGCCUCAUGGAUCGUGGUGGUCCCGGUGGAAUGUUCAGAGGUGGCCGUGGUGGAGACAG	0.462
GCCGGAAGUAAAAACAAAUGGAAAUGCUUCGGAUAGUGGCAGGGGUGGGGGUUGCUAAGGAAAGGGUGGGAUGGGAGUGGGUAAAGAGUU	1.36
CCUGUGCUACACAUCGUAUGUACCGAAUCGGCCCCCCCGGGCCCCCCCGGCCCCCCCGGGGAAAGUAUUAUGUUACGCCGUUCGGAUCUG	-0.206
GCAGGAAGUAAAAACAAAUGGAAAUGCUUCGGAUAGUGGAAGGGGUGGGGGUUGCUAAGGAAAGGGUGGGAUGGGAGUGGGUAAAGAGUU	0.811
CAAGUCCUGUGCUACACAUCGUAUGUACCGAAUCGGUUUGGGUUUGGGUUUGGGGAAAGUAUUAUGUUACGCCGUUCGGAUCUGCACUUC	-0.403
CACAGACAACACGCACCCACACAGACACAGAGGGAAGGGGUUGGGAUGGGUACAGGGUGCACAGCAGGGCGGGGUAGGACCCCAGCCCCU	1.88
UCCUGUGCUACACAUCGUAUGUACCGAAUCGGGGCCCCCCGGCCCCCCGGGCCCCCCGGAAAGUAUUAUGUUACGCCGUUCGGAUCUGCA	-0.00802
UGUGAGAUUAAACUUGCCCCCAAACGAUCUCGUUUGGAGACUAGAGCUGGAGAAGAAGAUGAAGGAGAAGAGGAUUCUGAUUCUGAUUAU	0.0844
CUCAAGUCCUGUGCUACACAUCGUAUGUACCGAAUCGGGCCGGGCCGGCCGGGAAAGUAUUAUGUUACGCCGUUCGGAUCUGCACUUCCA	-0.127
UCCUGUGCUACACAUCGUAUGUACCGAAUCGGGAAAAAAGGAAAAAAGGGGAAAAAAGGGAAAGUAUUAUGUUACGCCGUUCGGAUCUGC	-0.426
GUCCUGUGCUACACAUCGUAUGUACCGAAUCAAACCCCCAAAUUUUUAAAUUUUUAAAAAAGUAUUAUGUUACGCCGUUCGGAUCUGCAC	0.136
UGUGCUACACAUCGUAUGUACCGAAUCGGGGUUUUUUUGGGUUUUUUUGGGUUUUUUUGGGGAAAGUAUUAUGUUACGCCGUUCGGAUCU	-0.836

Sample 2 — technique: RNA Bind-n-Seq; form: RNA; medium: in vitro; tested at: 365 nM; reference: no-protein control; reading: higher = stronger binding
Target: RNA binding protein fox-1 homolog 2, RRM domain, GST-SBP tag (RBFOX2, Homo sapiens, UniProt O43251-10, residues 100-194)
Notes: natural RNA segment, single round, ends assumed
Constant ends, left off below: GGGAGUUCUACAGUCCGACGAUC … UGGAAUUCUCGGGUGCCAA
Target sequence (chain): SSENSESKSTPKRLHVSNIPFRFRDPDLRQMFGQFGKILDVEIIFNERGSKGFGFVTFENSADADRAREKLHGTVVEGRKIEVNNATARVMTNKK
Sequence	RBNS enrichment (R)
AUCUAGCACUUGCAGGCAUUCCAGGUAGAAGAGCUUUGCCCGUGCUCCAGCUAGCCUACACUGAUCCUGCCUAAGCAGGGUCCUGAACGCCGGAGACAGGGUCUGCUGGA	0.331
UGAGCACCGGAGCGCCUGGCUGCCUGCCAAGGAAGUGCAAUUGCAUAAAAACAGAAAGAACAACGCCCUGGAGCCAAUCUUCAAGAAAGGAAUUUCCAAAGGAUAAUAUU	0.402
CACUUAGGUGUAGAGCCCCACAGAUGGACAUGUGAGGGAAUUCUUGGGGUGACAUAAACUAGAUAAAGGGCCUUUCUUGGAGAACUAGGCUUAAGGAAUAUCCCUGUCUU	0.551
AGUCAUGUAAUUGCACAGGACAAGGAGGUCAGCGUGUGUGAUGGCAGCAUGCUGUGCCGGCACAUCGUGGAGUCCUAGAAACUCUCUAGUCCCUGCGGCUGUUCCCCUCC	17.3
GGGGGCAUGAACAAAAACCAGUGCCUCGUUGUGCACAGUCCUCUAAAAGUAGCAUUCUUAUCUGUUAGAAACAUAGAGUGAGCUUCAUCUGUAAUCCUUAAACUCGAUGU	0.591
ACCCUCUGGCUGCCUAGAUCAGUAAAUAAAAUUGAUGUAAUAUAAUUUAUAAGUAACACUGUUGAAACCCUGAUCCCAGUGGAGGCUGUAACCCACCUGCCCCCGCACCA	0.451
UGCUCAGUGGGCCAUCCAUCCAACCUUUAACUUGAGAGCCUUUCCUGCAGCCUGGAGGUGUCCAAGGAUUCCCGUACAGUGACUGUGUCUCACCGCCCACAACCCUAUCG	0.646
UAUUAAUGCAAUAAAUUAACUUUGUACACAUUUUUAUAUAAAAAAACAGCAAGUGAUUUCAGAAUGUUGUAGGCCUCAUUAGAGCUUGGUCUCCAAAAAUCUGUUUGAAA	0.642
UGUCUUGGCAGGGCUGUCCCCUCUUGCUUCUCCUUGCAUGAGCUGGAGGGCCUGUGUGAGUUACGCCCCUUUCCACACGCCGCUGCCCCAGCAACCCUGUUCACGCUCCA	3.03
UUUUGGAGAACGAUUCACUUAUGAAGACACCGAUUUUCAGCACAUGAUUGAGUUAUUUAGUGAAAAUGUGGAACUAGCUGCCAGUGCCUCAGUCUUCUUGUAUAAUGCCU	1.06
CAGAUUGACACACACAGAUUGGUGGAAGAAUAGCUUCAGUCCUCUUCCUUCAUCCCAUAUGUAGGUAGCCUUGCUUGACAAAUGUUUCUUCUAACUCUCCUUCUUCUGAA	0.543
UGAAGAUCUGCACACAGUAAGUGAUCCUCAGAAAUGUCCCUUCCAGCUCACAAACUCAGUUGGCCCGUGCUCCGUUCACCUGCGAAGGGCAGCCUAAUAUGAAGAUUGAU	0.603

Sample 3 — target: CCND2, cyclin fold, Cln2 fusion (human); technique: yeast growth competition, sequencing; medium: yeast; notes: weak parent motif; reference: not given; reading: higher = stronger binding
Starting sequence: SGO1 docking peptide (human); PLAKRALKYTDEK; partner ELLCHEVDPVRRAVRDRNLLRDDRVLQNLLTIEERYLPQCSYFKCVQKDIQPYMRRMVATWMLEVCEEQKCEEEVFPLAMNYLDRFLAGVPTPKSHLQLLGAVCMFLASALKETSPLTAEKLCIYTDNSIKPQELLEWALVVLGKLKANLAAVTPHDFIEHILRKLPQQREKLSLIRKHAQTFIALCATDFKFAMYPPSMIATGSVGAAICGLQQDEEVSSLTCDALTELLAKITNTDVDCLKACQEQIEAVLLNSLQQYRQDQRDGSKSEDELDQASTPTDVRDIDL
Change	normalised enrichment score
PLAKRALAYTDEK [K8A]	0.0921
ALAKRALKYTDEK [P1A]	0.0956
PLAKRAAKYTDEK [L7A]	-0.104
PAAKRALKYTDEK [L2A]	0.451
PLAKRALKYTAEK [D11A]	-0.191

Sample 4 — technique: protein binding microarray; form: double-stranded DNA, one strand shown; medium: in vitro; tested at: not given; reference: not given; reading: higher = stronger binding
Target: Histone acetyltransferase KAT6A, both winged helices, GST fusion (KAT6A, Homo sapiens, UniProt Q92794, residues 1-181)
Notes: 8-mer, flanks averaged, mean of 2 arrays, mostly near background
Target sequence (chain): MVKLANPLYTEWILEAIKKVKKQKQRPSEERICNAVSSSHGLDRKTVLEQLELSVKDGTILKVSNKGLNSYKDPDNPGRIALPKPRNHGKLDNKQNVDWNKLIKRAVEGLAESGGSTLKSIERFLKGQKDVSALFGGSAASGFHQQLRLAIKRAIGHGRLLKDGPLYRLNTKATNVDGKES
Sequence	E-score
ACAAGTGT	-0.104
CCGTGAAG	0.196
CTTTGCTC	-0.079
CGCTGCAA	0.21
AATGGGGC	-0.139
AAATGTAC	-0.168
CACGGCAG	0.209
CCTTCTAA	-0.228
ACGACCAA	-0.135
CTCCGGCA	0.103
GACACGAA	0.00709
ACATAAAC	-0.0384
GTTCTGGA	-0.0229
ATAATTGG	-0.0744
GATCAGAC	-0.0617
CGAAAGTC	0.0957
ACTACATA	-0.271
CGGGGCCA	0.0523
GTTACTAA	-0.00963
CACAACAG	-0.0644
CGTTGCAA	-0.114
CATAGTGC	0.0141
AAGTCCGA	0.0826
CCTTCACC	0.0818
ATTCCATA	-0.0425

Sample 5 — technique: protein-binding microarray; form: double-stranded DNA, one strand shown; medium: in vitro; tested at: 2540 nM top; notes: 60-bp whole probe; with: salmon DNA 0.4 mg/ml; reference: random background probes; reading: higher = stronger binding; constant ends, left off below: GCCTAGCAC … GTCTTGATTCGCTTGACGCTGCTG
Target: Interferon regulatory factor 3, full length, phosphomimetic (IRF3, Homo sapiens, UniProt Q14653, residues 1-427, S386D/S396D/S398D/S402D/T404D/S405D)
Sequence of UniProt Q14653 (whole entry, unmodified, looked up): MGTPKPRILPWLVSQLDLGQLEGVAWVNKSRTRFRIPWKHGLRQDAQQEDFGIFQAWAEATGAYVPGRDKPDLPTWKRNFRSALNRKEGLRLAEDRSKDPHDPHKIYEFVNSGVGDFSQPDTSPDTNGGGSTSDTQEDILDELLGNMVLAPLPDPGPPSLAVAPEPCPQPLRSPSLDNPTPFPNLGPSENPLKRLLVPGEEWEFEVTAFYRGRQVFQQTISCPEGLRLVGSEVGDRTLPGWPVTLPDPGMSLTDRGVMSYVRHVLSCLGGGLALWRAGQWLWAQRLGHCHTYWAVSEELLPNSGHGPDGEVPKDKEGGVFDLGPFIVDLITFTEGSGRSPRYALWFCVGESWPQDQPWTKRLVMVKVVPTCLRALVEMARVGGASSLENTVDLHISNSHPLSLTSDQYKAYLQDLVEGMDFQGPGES
Sequence	fitted relative affinity
TCAATTTTCTCTGTTCTACTGTGCTAG	1.14 z-score
CCTGGACGGGAGTGCGGTGCGTGCTAG	-0.718 z-score
TAAGGTCTCGGTTTCGGTTAGTGCTAG	5.33 z-score
TCATGTTTATGTCTGGGACTGTGCTAG	-0.207 z-score
CAGTTAATGAAAATTCTAATTGTGCTA	0.547 z-score
GACGAAATCGGGACTGGAGACGTGCTA	-0.0687 z-score
GACGATTCCGGGACTGGAGACGTGCTA	0.155 z-score
GATGATTCCAGTTTCGAGACGTGCTAG	3.17 z-score
GATGGTATCCTTATCCTGACGTGCTAG	5.4 z-score
TTAGATCTCTGTCTCGATTAGTGCTAG	0.194 z-score
TCACCTTTCTCAACCTCACTGTGCTAG	5.17 z-score
TTAGATGTCGGGTTTCGATTAGTGCTA	1.83 z-score
TCTACTTCTCTTTTGGCTTTGTGCTAG	1.36 z-score
GACGGTTTCCTACTGCTGAGGTGCTAG	5.48 z-score
GTGGTTTTCATTATTGCTTCGTGCTAG	2.69 z-score
GACGTTCTCCTTATCCTGACGTGCTAG	2.79 z-score
